Experimental data from different studies.
Numbered parts are unrelated; each lists some results of a single study. ± gives the spread as reported. Values after ≈ are worked out from the molar mass of the structure shown.

Series 1 — organism: VSVΔG with SARS-CoV-2 spike; read-out: pseudovirus infection; strain: Wuhan variant; tested at: 10 µM
| SMILES | inhibition |
| --- | --- |
| Oc1ccc2ccccc2c1N=Nc1ccccn1 | 51% |
| O=C1CN(c2ncnc3sc4c(c23)CCCC4)CCN1 | 53% |
| CS(=O)(=O)c1ncc(Cl)c(C(=O)N2CCN(C(c3ccccc3)c3ccccc3)CC2)n1 | 38% |
| Cc1nc2cc(-c3cccc4ccnn34)ccc2s1 | 86% |
| CS(=O)(=O)c1cc(C(F)(F)F)cc(S(C)(=O)=O)c1S(C)(=O)=O | 41% |
| c1csc(-c2csc3nc(CN4CCOCC4)nc(Sc4nnc(C5CC5)o4)c23)c1 | 39% |
| NC(=S)N/N=C/c1ncc(C(F)(F)F)cc1Cl | 43% |
| O=C(/C=C/S/C=C/C(=O)c1ccc(F)cc1)c1ccc(F)cc1 | 40% |

Other studies, line by line
| Compound | organism | assay | test system | conditions | quantity | value |
| --- | --- | --- | --- | --- | --- | --- |
| CC(C)(C)[C@H](NC(=O)C(F)(F)F)C(=O)N1C[C@H]2[C@@H]([C@H]1C(=O)N[C@H](C#N)C[C@@H]1CCNC1=O)C2(C)C | SARS-CoV-2 | viral replication, replicon | S6799A Mpro cleavage-site mutant |  | EC50 | 20 nM |
| O=c1c2ccccc2[se]n1-c1ccccc1 | SARS-CoV-2 Wuhan-Hu-1 |  | Vero C1008 | 24 h | EC50 | 80 ± 10 nM |
| CC(C)=CCNc1ncnc2c1ncn2[C@@H]1O[C@H](CO)[C@@H](O)[C@H]1O | SARS-CoV-2 | viral replication | Vero C1008, Omicron BA.1 | 48 h, reduction of infectious virus | EC90 | 1500 ± 60 nM |
| C=C(C)[C@@H]1CC[C@]2(C(=O)O)CC[C@]3(C)[C@H](CC[C@@H]4[C@@]5(C)CC[C@H](O)C(C)(C)[C@@H]5CC[C@]43C)[C@@H]12 | SARS-CoV-2 Wuhan-Hu-1 |  | Vero C1008 | 24 h | EC50 | > 20000 nM |
| O=[N+]([O-])c1cn2c(n1)OC[C@@H](OCc1ccc(OC(F)(F)F)cc1)C2 | Mycobacterium tuberculosis |  | H37Rv Pks13 resistant mutants |  | MIC | 0.31 µM |
| NNC(=O)c1ccncc1 | Mycobacterium tuberculosis |  | fluoroquinolone-resistant |  | MIC | 0.33 µM (≈ 0.0453 µg/mL) |
| O=c1[nH]cnc2c([C@@H]3N[C@H](CO)[C@@H](O)[C@H]3O)c[nH]c12 | SARS-CoV-2 | viral RNA copies | Vero C1008, Omicron BA.1 | 48 h | EC50 | 690 ± 40 nM |
| COc1c(N2C[C@@H]3CCCN[C@@H]3C2)c(F)cc2c(=O)c(C(=O)O)cn(C3CC3)c12 | Mycobacterium tuberculosis |  | H37Rv Pks13 resistant mutants |  | MIC | 0.13 µM (≈ 0.0522 µg/mL) |

A few entries again (series 1):
| SMILES | inhibition |
| --- | --- |
| CS(=O)(=O)c1cc(C(F)(F)F)cc(S(C)(=O)=O)c1S(C)(=O)=O | 41% |
| O=C1CN(c2ncnc3sc4c(c23)CCCC4)CCN1 | 53% |
| CS(=O)(=O)c1ncc(Cl)c(C(=O)N2CCN(C(c3ccccc3)c3ccccc3)CC2)n1 | 38% |
